Assay results pooled from the literature.
± gives the spread as reported. Square brackets hold non-standard residues; d marks the D form. Ends that are not written are not given here. No end group written: not given here.
GLP1R: GLP1R (Homo sapiens, UniProt P43220)
B1: VCL head domain 1; chain MPVFHTRTIESILEPVAQQISHLVIMHEEGEVDGKAIPDLTAPVSAVQAAVSNLVRVGKETVQTTEDQILKRDMPPAFIKVENACTKLVRAAQMLQADPYSVPARDYLIDGSRGILSGTSDLLLTFDEAEVRKIIRVCKGILEYLTVAEVVETMEDLVTYTKNLGPGMTKMAKMIDERQQELTHQEHRVMLVNSMNTVKELLPVLISAMKIFVTTKNTKSQGIEEALKNRNFTVEKMSAEINEIIRVLQLTSWDEDAW
B2: erenumab; V domains shown; sequence looked up; VH QVQLVESGGGVVQPGRSLRLSCAASGFTFSSFGMHWVRQAPGKGLEWVAVISFDGSIKYSVDSVKGRFTISRDNSKNTLFLQMNSLRAEDTAVYYCARDRLNYYDSSGYYHYKYYGMAVWGQGTTVTVSS; VL QSVLTQPPSVSAAPGQKVTISCSGSSSNIGNNYVSWYQQLPGTAPKLLIYDNNKRPSGIPDRFSGSKSGTSTTLGITGLQTGDEADYYCGTWDSRLSAVVFGGGTKLTVL
B3: JUN (Homo sapiens, UniProt P05412); sequence looked up; chain MTAKMETTFYDDALNASFLPSESGPYGYSNPKILKQSMTLNLADPVGSLKPHLRAKNSDLLTSPDVGLLKLASPELERLIIQSSNGHITTTPTPTQFLCPKNVTDEQEGFAEGFVRALAELHSQNTLPSVTSAAQPVNGAGMVAPAVASVAGGSGSGGFSASLHSEPPVYANLSNFNPGALSSGGGAPSYGAAGLAFPAQPQQQQQPPHHLPQQMPVQHPRLQALKEEPQTVPEMPGETPPLSPIDMESQERIKAERKRMRNRIAASKCRKRKLERIARLEEKVKTLKAQNSELASTANMLREQVAQLKQKVMNHVNSGCQLMLTQQLQTF
B4: rof 1-84 E17A (Escherichia coli, UniProt P0AFW8); chain MNDTYQPINCDDYDNLALACQHHLMLTLELKDGEKLQAKASDLVSRKNVEYLVVEAAGETRELRLDKITSFSHPEIGTVVVSES
B5: TIMP3 24-144 (Homo sapiens, UniProt P35625); sequence looked up; chain CTCSPSHPQDAFCNSDIVIRAKVVGKKLVKEGPFGTLVYTIKQMKMYRGFTKMPHVQYIHTEASESLCGLKLEVNKYQYLLTGRVYDGKMYTGLCNFVERWDQLTLSQRKGLNYRYHLGCN
B6: Vcl (Mus musculus, UniProt Q64727); sequence looked up; chain MPVFHTRTIESILEPVAQQISHLVIMHEEGEVDGKAIPDLTAPVAAVQAAVSNLVRVGKETVQTTEDQILKRDMPPAFIKVENACTKLVQAAQMLQSDPYSVPARDYLIDGSRGILSGTSDLLLTFDEAEVRKIIRVCKGILEYLTVAEVVETMEDLVTYTKNLGPGMTKMAKMIDERQQELTHQEHRVMLVNSMNTVKELLPVLISAMKIFVTTKNSKNQGIEEALKNRNFTVEKMSAEINEIIRVLQLTSWDEDAWASKDTEAMKRALASIDSKLNQAKGWLRDPNASPGDAGEQAIRQILDEAGKVGELCAGKERREILGTCKMLGQMTDQVADLRARGQGASPVAMQKAQQVSQGLDVLTAKVENAARKLEAMTNSKQSIAKKIDAAQNWLADPNGGPEGEEQIRGALAEARKIAELCDDPKERDDILRSLGEIAALTSKLGDLRRQGKGDSPEARALAKQVATALQNLQTKTNRAVANSRPAKAAVHLEGKIEQAQRWIDNPTVDDRGVGQAAIRGLVAEGHRLANVMMGPYRQDLLAKCDRVDQLTAQLADLAARGEGESPQARALASQLQDSLKDLKAQMQEAMTQEVSDVFSDTTTPIKLLAVAATAPPDAPNREEVFDERAANFENHSGRLGATAEKAAAVGTANKSTVEGIQASVKTARELTPQVISAARILLRNPGNQAAYEHFETMKNQWIDNVEKMTGLVDEAIDTKSLLDASEEAIKKDLDKCKVAMANIQPQMLVAGATSIARRANRILLVAKREVENSEDPKFREAVKAASDELSKTISPMVMDAKAVAGNISDPGLQKSFLDSGYRILGAVAKVREAFQPQEPDFPPPPPDLEQLRLTDELAPPKPPLPEGEVPPPRPPPPEEKDEEFPEQKAGEVINQPMMMAARQLHDEARKWSSKGNDIIAAAKRMALLMAEMSRLVRGGSGTKRALIQCAKDIAKASDEVTRLAKEVAKQCTDKRIRTNLLQVCERIPTISTQLKILSTVKATMLGRTNISDEESEQATEMLVHNAQNLMQSVKETVREAEAASIKIRTDAGFTLRWVRKTPWYQ
B7: CDKN1A 9-84 del46-48 (Homo sapiens, UniProt P38936); sequence looked up; chain RQNPCGSKACRRLFGPVDSEQLSRDCDALMAGCIQEAWNFDFVTETPLEGDFAWERVRGLGLPKLYLPTGPRR
B8: CRABP2 (Homo sapiens, UniProt P29373); chain MPNFSGNWKIIRSENFEELLKVLGVNVMLRKIAVAAASKPAVEIKQEGDTFYIKTSTTVRTTEINFKVGEEFEEQTVDGRPCKSLVKWESENKMVCEQKLLKGEGPKTSWTRELTNDGELILTMTADDVVCTRVYVRE
B9: UGT1A9 (Homo sapiens, UniProt O60656); chain GKLLVVPMDGSHWFTMRSVVEKLILRGHEVVVVMPEVSWQLGRSLNCTVKTYSTSYTLEDLDREFKAFAHAQWKAQVRSIYSLLMGSYNDIFDLFFSNCRSLFKDKKLVEYLKESSFDAVFLDPFDNCGLIVAKYFSLPSVVFARGILCHYLEEGAQCPAPLSYVPRILLGFSDAMTFKERVRNHIMHLEEHLLCHRFFKNALEIASEILQTPVTEYDLYSHTSIWLLRTDFVLDYPKPVMPNMIFIGGINCHQGKPLPMEFEAYINASGEHGIVVFSLGSMVSEIPEKKAMAIADALGKIPQTVLWRYTGTRPSNLANNTILVKWLPQNDLLGHPMTRAFITHAGSHGVYESICNGVPMVMMPLFGDQMDNAKRMETKGAGVTLNVLEMTSEDLENALKAVINDKSYKENIMRLSSLHKDRPVEPLDLAVFWVEFVMRHKGAPHLRPAAHDLTWYQYHSLDVIGFLLAVVLTVAFITFKCCAYGYRKCLGKKGRVKKAHKSKTH
B10: Vasp (Mus musculus, UniProt P70460); sequence looked up; chain MSETVICSSRATVMLYDDSNKRWLPAGTGPQAFSRVQIYHNPTANSFRVVGRKMQPDQQVVINCAIIRGVKYNQATPIFHQWRDARQVWGLNFGSKEDAIQFATGMANALEALEGGGPPPAPAPPAWSAQNGPSPEELEQQKRQPEHMERRVSNAGGPPAPPAGGPPPPPGPPPPPGPPPPPGLPSSGVSGAGHGAGAAPPPAPPLPTAQGPNSGGSGAPGLAAAIAGAKLRKVSKQEEASGGPLAPKAENSRSTGGGLMEEMNAMLARRRKATQVGEKPPKDESASEESEARLPAQSEPVRRPWEKNSTTLPRMKSSSSVTTSEAHPSTPCSSDDSDLERVKQELLEEVRKELQKMKEEIIEVFVQELRKRGSP
UniProt P26039, sequence (whole entry, looked up): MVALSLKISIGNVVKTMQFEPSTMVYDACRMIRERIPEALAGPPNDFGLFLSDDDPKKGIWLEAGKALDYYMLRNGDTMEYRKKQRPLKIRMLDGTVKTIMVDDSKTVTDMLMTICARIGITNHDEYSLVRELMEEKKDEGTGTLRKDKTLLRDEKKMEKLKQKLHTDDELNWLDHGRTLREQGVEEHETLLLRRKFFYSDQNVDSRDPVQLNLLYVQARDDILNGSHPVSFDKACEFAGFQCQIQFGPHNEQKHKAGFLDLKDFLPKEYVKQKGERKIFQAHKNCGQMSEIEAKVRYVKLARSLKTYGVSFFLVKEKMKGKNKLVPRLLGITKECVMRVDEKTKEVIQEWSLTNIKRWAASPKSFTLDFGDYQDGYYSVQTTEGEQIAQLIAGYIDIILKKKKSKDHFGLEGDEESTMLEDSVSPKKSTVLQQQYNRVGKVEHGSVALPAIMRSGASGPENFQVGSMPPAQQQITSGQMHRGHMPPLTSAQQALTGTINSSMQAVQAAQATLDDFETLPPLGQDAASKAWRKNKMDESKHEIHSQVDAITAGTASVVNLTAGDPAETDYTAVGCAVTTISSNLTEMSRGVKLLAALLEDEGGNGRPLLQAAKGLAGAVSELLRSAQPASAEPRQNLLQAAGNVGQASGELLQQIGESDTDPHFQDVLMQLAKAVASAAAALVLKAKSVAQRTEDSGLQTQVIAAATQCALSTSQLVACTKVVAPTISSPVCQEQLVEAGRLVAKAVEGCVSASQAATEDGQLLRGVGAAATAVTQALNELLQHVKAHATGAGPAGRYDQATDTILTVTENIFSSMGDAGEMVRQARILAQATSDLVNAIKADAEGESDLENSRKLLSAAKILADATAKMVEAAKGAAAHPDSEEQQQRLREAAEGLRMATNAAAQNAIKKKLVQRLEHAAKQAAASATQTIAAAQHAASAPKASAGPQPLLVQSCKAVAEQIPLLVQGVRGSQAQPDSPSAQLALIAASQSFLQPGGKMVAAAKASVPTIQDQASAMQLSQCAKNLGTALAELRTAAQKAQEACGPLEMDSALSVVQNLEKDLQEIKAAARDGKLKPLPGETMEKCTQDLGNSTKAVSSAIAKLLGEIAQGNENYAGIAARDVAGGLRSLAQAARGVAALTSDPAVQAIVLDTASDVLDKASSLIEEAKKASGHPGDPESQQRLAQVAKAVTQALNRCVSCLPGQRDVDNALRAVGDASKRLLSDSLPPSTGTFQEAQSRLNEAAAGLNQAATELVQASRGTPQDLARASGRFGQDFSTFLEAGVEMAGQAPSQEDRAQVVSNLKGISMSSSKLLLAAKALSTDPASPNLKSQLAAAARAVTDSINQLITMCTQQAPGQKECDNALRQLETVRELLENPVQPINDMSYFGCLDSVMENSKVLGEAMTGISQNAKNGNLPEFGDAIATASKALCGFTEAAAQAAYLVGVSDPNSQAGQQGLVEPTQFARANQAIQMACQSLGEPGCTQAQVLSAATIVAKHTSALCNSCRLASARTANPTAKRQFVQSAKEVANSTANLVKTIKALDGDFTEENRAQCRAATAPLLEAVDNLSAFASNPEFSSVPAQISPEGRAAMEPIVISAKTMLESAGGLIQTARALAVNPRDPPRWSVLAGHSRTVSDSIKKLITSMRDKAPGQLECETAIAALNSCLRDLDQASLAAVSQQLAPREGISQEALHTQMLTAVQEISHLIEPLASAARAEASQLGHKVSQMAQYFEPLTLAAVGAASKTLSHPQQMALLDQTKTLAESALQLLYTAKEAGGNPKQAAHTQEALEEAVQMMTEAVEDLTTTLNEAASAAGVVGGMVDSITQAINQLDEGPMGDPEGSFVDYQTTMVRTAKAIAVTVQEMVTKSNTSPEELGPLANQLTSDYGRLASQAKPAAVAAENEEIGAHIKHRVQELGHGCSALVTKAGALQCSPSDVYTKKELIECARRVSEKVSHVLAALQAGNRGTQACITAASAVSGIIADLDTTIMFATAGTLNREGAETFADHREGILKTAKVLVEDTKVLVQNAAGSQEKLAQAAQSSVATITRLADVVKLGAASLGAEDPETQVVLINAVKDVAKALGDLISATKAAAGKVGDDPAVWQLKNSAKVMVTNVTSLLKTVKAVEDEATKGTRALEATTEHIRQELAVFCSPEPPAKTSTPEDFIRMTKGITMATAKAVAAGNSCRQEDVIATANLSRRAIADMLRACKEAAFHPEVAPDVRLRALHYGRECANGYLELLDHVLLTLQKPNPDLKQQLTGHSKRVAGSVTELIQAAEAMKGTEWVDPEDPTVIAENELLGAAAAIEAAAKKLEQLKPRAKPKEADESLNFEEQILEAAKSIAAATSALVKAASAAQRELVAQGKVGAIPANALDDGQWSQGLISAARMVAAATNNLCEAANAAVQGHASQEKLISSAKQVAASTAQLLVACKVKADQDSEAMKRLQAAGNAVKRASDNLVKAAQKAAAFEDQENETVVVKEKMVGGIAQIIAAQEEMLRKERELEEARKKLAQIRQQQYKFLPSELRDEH
UniProt Q6PL18, sequence (whole entry, looked up): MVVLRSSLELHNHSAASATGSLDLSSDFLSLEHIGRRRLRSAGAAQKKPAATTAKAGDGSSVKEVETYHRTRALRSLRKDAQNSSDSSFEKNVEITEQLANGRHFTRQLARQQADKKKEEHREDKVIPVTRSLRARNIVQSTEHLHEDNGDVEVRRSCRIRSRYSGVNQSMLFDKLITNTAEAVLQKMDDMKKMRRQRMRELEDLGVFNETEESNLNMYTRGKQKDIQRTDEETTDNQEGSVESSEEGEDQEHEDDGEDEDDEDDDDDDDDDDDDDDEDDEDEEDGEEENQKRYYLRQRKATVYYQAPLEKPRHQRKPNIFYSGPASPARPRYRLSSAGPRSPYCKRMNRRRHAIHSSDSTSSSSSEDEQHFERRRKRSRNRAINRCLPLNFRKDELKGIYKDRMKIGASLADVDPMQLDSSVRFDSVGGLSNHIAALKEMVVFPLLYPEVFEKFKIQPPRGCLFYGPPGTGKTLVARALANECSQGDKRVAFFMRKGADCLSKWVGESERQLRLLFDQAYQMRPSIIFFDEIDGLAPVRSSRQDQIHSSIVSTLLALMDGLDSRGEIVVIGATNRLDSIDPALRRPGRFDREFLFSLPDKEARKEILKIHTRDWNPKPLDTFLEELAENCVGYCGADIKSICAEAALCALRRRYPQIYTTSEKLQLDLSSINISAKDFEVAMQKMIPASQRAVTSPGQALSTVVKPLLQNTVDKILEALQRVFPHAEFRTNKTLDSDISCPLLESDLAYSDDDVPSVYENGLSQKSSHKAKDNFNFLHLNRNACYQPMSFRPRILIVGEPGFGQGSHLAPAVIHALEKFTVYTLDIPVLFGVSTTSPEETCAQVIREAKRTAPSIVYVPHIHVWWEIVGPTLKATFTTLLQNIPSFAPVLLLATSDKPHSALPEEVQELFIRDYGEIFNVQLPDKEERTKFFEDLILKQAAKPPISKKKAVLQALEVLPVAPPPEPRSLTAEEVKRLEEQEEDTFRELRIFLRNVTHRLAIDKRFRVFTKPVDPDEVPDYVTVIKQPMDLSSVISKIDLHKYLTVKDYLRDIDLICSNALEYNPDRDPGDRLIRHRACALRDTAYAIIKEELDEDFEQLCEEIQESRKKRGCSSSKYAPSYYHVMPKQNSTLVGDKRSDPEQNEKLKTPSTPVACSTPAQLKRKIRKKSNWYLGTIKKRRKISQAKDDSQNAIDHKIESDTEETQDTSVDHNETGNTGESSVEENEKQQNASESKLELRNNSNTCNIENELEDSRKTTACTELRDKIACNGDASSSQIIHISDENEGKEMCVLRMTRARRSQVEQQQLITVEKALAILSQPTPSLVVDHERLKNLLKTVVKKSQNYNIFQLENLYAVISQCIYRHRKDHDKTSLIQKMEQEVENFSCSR
UniProt P07949, sequence (whole entry, looked up): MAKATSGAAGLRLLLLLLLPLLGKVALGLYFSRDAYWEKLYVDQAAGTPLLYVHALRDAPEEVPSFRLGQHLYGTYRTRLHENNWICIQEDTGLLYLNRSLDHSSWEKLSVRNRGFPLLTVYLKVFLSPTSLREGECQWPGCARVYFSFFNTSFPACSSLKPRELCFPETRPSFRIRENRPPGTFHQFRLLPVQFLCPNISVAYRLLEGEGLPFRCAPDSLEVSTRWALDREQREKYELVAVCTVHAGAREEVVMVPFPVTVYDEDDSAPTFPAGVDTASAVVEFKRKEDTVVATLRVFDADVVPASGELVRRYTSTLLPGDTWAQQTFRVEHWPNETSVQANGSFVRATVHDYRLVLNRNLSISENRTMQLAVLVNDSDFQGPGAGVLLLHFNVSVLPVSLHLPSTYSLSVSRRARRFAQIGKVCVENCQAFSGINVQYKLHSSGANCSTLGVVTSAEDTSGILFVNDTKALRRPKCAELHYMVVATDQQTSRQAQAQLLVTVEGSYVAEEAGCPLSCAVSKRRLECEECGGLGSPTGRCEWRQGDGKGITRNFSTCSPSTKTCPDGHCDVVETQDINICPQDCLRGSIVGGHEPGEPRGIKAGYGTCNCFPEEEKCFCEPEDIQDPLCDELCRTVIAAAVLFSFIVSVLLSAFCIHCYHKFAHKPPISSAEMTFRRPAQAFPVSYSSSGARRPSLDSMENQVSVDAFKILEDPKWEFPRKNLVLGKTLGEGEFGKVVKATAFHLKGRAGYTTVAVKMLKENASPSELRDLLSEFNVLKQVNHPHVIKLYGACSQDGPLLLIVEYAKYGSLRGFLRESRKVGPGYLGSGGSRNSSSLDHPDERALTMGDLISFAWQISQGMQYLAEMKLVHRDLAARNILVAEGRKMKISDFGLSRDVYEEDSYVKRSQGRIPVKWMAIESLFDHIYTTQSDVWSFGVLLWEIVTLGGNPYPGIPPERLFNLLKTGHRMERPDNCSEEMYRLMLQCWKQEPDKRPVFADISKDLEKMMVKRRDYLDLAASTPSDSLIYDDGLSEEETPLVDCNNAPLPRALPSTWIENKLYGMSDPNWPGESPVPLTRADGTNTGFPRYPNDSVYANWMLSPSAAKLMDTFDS

Molecule	tested on	assay	system	conditions	scale	quantity	value
B1 (VCL head domain 1)	CTNNA3 M1-M3 259-667 (UniProt Q65CL1)	magnetic tweezers force-jump				koff	0.009 s⁻¹
VPLPAGGGTVLTKMYPRGNHWAVGHLM-NH2 (GRP mature (UniProt P07492); C-terminal amide)	GRPR R308A (Homo sapiens, UniProt P30550)	calcium mobilization	peptide, CHO		relative to: wild-type receptor, higher = greater loss	activity decrease	66 fold
MT-CO3 (Bos taurus, UniProt P00415)	cytochrome c oxidase eight-subunit core (Bos taurus, UniProt P00396)	anion exchange chromatography, RP-HPLC, SDS-PAGE		120 min, pH 7.2, room temperature, apparent, partly coupled to unfolding		urea midpoint for subunit dissociation	3.9 M
VAT (Thermoplasma acidophilum, UniProt O05209)	20S proteasome core particle (Thermoplasma acidophilum, UniProt P25156)	BODIPY-casein degradation, activator		100 nM CP, added: ATP	relative to: TaCP alone, higher = more fluorescence	casein degradation	2.5 fold
CD8A fragment (Homo sapiens) (sequence not shown)	CEACAM5 del42-46 (Homo sapiens)	SPR				koff	0.0015 s⁻¹
PRKCB (Homo sapiens, UniProt P05771-2)	AKAP5 1-81 (Homo sapiens, UniProt P24588)	CKAR response after Oxo-M, FRET	CHO	added: BIS I		half-time of inhibition	9.2 min
B2 (erenumab)	CALCR/RAMP1 on cells (Homo sapiens)	cAMP production, antagonist, Schild analysis	antibody, Cos7	added: αCGRP		pKB	7.04
B3 (JUN)	CDK3 (Homo sapiens, UniProt Q00526)	reporter gene, two-hybrid	HEK293		relative to: control with pG5-Luc and Cdk3, higher = more interaction	luciferase activity	15 fold
H[dS]QGTFTSDYSKYLDSRRAQ[dC]FVQWLMCTKRNRNNIA-NH2 (oxyntomodulin analog D21C/N28C, D-Ser2, D-Cys21, C-terminal amide; cysteine pairing not given here; D-Ser2, D-Cys21, C-terminal amide)	GLP1R	reporter gene, agonist, CRE luciferase reporter	peptide, HEK293			EC50	> 2 µM
FGF2 (Homo sapiens, UniProt P09038)	FGFR3 isoform IIIc (unknown, UniProt Q61851)	cell proliferation, MTT	BaF3-FGFR3c	20 nM, 48 h, added: chondroitin sulfate A 4.9 µg/mL	relative to: FGF 1 with heparin, higher = more proliferation	cell proliferation	6%
C5a mature (Homo sapiens, UniProt P01031)	C5AR1 (Homo sapiens, UniProt P21730)	antagonist, XTT assay	HMDMs	24 h, added: PMX205 10 µM	relative to: vehicle 50%, higher = more survival	C. albicans survival	78%
TPDYLMQLMNDKKLMSSLPNFSGIFNHLERLLDEAISRVRKDMYNDTLNGSTEK (Qki 14-67 C35S/E48A (Mus musculus, UniProt Q9QYS9))	itself	CD thermal melting		50 µM		melting temperature	40 °C
GCG GLP-1()	GLP1R	cAMP, agonist	CHO-K1			cAMP accumulation EC50	1.12 µM
B4 (rof 1-84 E17A)	rho 1-419 (Escherichia coli, UniProt P0AG30)	rho termination, inhibitor			lower = more inhibition	terminated transcripts	25%
B5 (TIMP3 24-144)	ADAMTS5 262-930 (Homo sapiens, UniProt Q9UNA0)	inhibitor, steady-state kinetics		1 h, pH 7.5, 37 °C		Ki	0.00013 µM
SGRGK(Ac)GGKGL (histone H4 residues 1-10; acetylated K5)	ATAD2 bromodomain 981-1108, Cys1057-Cys1079 disulfide (Homo sapiens, UniProt Q6PL18)	ITC	peptide	pH 7.0, 5 °C, NaCl 150 mM		molecule per partner	0.93
NRTN fragment Y119A (Homo sapiens)	RET 29-635 (Homo sapiens, UniProt P07949)	MAPK signaling, SRE luciferase reporter, agonist	TGW neuroblastoma		higher = stronger signal	maximal luciferase signal	86800 RLU
ADM2 fragment (Homo sapiens)	CALCRL/RAMP1 whole, on cells (Homo sapiens)	cAMP, antagonist, CAMYEL BRET	COS-7	100 nM agonist		cAMP decay time constant	4.44 min
B6 (Vcl)	Tln1 482-786, SNAP, HaloTag, DNA tethers (Mus musculus, UniProt P26039)	pull-down	lysate		relative to: either spring alone, higher = more molecule pulled down	relative pulldown	> 2 fold
B7 (CDKN1A 9-84 del46-48)	CDK4/CCND1	Cdk4/cyclin D1 kinase activity, inhibitor			relative to: wild-type p21-KID, higher = weaker inhibition	relative IC50	> 40 fold
KIF15 Coil-1 (Homo sapiens)	tubulin alpha/beta microtubules, E-hook removed (Bos taurus)	optical trap rupture assay				rupture force	3.4 pN
B8 (CRABP2)	CYP2C8 (Homo sapiens, UniProt P10632)	4-OH-RA formation, inhibitor	Supersomes	added: holo-CRABP-II 1 µM	relative to: free atRA, higher = less product	decrease of product formation	99%
B9 (UGT1A9)	COc1ccc2oc(-c3ccccc3)c(O)c(=O)c2c1	steady-state kinetics		pH 7.4, 37 °C		Vmax	0.0054 µmol/min/mg
B10 (Vasp)	WASF2 195-498 (Homo sapiens, UniProt Q9Y6W5)	actin comet motility			relative to: ΔEVH1-VASP or no addition, higher = more displacement	bead displacement	1.7 fold
RRRRRRC / CGSFPPWVKKTEV (peptide; cyclic, disulfide-linked poly-Arg)	DLG4 309-422 (Homo sapiens, UniProt P78352)	SPR	peptide			koff	0.0732 s⁻¹
GYWKLLITIHDRKEFAKF (ITGB3 715-730 (Homo sapiens))	Myom1 fragment (Mus musculus)	competition with labelled skelemin, competitor, solid-phase competition	peptide	20 min, 22 °C		IC50	0.5 ± 0.14 µM
STEP61 (Rattus norvegicus)	itself	pNPP dephosphorylation		hippocampus, aged rats	relative to: young rats, higher = more activity	phosphatase activity	40.7%

For quick reference, copied from above:
Molecule	tested on	assay	system	conditions	scale	quantity	value
C5a mature (Homo sapiens, UniProt P01031)	C5AR1 (Homo sapiens, UniProt P21730)	antagonist, XTT assay	HMDMs	24 h, added: PMX205 10 µM	relative to: vehicle 50%, higher = more survival	C. albicans survival	78%
B3 (JUN)	CDK3 (Homo sapiens, UniProt Q00526)	reporter gene, two-hybrid	HEK293		relative to: control with pG5-Luc and Cdk3, higher = more interaction	luciferase activity	15 fold
B2 (erenumab)	CALCR/RAMP1 on cells (Homo sapiens)	cAMP production, antagonist, Schild analysis	antibody, Cos7	added: αCGRP		pKB	7.04
